Assay results from different studies.
± gives the spread as reported.
Chain of UniProt Q08460 (whole entry, looked up): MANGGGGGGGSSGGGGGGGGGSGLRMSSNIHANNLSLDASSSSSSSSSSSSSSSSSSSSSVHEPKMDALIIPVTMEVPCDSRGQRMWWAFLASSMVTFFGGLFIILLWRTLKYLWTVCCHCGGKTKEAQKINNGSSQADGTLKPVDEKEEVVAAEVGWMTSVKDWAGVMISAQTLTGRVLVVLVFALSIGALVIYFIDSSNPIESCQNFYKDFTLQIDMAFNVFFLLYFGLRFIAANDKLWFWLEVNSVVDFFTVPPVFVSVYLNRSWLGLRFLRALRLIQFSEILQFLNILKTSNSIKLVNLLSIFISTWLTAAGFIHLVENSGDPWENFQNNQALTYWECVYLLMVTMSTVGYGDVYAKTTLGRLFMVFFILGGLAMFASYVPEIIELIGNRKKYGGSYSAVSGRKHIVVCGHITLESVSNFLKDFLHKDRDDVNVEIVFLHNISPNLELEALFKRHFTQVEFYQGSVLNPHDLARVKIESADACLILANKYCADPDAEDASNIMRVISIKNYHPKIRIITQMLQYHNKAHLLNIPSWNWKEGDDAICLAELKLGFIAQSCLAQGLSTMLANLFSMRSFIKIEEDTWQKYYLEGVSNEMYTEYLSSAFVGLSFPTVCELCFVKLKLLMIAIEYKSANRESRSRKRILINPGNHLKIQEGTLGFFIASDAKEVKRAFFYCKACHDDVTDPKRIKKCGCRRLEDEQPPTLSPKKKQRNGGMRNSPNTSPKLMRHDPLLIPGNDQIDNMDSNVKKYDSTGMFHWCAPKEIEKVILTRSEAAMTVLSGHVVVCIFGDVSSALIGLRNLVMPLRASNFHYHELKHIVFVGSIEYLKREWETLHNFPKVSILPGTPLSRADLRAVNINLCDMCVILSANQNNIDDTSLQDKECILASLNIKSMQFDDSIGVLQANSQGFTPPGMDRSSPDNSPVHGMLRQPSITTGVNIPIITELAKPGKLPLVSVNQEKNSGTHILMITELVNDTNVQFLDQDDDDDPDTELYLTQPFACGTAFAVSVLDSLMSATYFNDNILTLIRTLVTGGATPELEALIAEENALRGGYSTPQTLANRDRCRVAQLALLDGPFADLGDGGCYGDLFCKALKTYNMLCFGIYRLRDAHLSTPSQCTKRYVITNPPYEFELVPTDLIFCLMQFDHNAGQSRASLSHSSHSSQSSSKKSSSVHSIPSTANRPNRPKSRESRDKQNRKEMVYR
Chain of UniProt P08191 (whole entry, looked up): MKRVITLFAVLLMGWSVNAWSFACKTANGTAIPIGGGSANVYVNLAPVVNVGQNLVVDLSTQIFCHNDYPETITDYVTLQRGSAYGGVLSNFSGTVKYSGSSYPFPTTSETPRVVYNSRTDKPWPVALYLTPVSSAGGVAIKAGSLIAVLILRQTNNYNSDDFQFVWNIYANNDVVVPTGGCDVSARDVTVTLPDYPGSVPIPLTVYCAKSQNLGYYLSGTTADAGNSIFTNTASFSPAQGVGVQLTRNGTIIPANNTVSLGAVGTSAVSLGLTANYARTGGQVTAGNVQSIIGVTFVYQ
Chain of UniProt O35082 (whole entry, looked up): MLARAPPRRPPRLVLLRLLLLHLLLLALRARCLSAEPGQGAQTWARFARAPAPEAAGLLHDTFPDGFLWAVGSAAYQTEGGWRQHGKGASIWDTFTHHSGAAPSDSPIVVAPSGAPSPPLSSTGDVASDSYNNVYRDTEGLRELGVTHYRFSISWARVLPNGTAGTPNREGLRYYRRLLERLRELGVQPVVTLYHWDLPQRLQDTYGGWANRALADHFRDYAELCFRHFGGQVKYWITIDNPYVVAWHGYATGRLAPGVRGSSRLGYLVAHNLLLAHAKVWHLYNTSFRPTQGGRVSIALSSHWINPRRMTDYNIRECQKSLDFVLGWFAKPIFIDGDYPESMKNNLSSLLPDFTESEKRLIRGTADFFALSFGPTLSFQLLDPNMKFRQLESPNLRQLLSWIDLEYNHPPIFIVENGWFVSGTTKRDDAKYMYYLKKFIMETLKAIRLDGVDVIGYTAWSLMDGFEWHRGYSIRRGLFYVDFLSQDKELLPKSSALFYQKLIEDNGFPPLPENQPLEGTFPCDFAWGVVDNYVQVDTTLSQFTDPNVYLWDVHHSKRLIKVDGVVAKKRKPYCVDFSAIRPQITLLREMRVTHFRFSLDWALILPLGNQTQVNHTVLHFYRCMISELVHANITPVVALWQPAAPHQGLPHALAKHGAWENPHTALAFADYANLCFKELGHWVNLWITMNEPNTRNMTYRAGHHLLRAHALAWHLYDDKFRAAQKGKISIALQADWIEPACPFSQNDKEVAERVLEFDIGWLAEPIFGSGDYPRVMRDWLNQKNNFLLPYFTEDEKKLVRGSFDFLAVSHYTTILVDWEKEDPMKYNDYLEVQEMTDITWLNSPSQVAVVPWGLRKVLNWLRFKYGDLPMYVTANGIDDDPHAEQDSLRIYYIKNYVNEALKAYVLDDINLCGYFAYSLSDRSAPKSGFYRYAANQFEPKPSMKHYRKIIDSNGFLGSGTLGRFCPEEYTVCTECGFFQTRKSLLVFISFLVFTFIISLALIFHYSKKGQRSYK
Chain of UniProt Q06151 (whole entry, unmodified, looked up): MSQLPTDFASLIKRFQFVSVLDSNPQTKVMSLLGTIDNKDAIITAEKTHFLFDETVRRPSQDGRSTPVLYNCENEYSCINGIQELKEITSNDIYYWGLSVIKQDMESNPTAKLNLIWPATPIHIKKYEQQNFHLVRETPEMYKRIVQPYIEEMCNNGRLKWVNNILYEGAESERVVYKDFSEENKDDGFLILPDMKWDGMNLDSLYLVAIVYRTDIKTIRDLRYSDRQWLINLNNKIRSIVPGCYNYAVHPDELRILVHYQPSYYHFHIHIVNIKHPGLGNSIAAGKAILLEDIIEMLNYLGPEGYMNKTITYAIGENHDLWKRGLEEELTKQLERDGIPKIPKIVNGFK
Chain of UniProt O88703 (whole entry, looked up): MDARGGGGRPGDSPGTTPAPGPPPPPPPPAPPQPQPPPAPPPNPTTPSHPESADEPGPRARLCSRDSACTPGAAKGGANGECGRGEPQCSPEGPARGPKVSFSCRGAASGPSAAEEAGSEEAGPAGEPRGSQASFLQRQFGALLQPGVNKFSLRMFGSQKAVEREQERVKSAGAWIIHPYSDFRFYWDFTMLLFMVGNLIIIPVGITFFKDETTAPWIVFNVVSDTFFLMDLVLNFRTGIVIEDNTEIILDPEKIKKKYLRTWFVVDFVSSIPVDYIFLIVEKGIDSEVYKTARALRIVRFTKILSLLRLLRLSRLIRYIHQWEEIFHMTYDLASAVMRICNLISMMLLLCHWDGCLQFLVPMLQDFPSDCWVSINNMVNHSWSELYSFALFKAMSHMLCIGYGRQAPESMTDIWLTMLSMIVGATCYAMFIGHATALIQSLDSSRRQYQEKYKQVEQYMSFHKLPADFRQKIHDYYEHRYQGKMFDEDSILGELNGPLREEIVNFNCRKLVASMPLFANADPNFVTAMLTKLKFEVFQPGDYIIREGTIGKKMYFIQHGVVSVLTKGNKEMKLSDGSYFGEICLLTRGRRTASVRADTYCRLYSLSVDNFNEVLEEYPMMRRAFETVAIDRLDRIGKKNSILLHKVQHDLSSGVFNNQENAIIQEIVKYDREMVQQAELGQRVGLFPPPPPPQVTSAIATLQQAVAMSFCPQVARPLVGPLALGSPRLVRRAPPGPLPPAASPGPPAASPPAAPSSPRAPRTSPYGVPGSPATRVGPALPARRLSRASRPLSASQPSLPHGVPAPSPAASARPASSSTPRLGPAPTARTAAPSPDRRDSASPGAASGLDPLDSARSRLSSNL
Chain of UniProt Q8I5R7 (whole entry, looked up): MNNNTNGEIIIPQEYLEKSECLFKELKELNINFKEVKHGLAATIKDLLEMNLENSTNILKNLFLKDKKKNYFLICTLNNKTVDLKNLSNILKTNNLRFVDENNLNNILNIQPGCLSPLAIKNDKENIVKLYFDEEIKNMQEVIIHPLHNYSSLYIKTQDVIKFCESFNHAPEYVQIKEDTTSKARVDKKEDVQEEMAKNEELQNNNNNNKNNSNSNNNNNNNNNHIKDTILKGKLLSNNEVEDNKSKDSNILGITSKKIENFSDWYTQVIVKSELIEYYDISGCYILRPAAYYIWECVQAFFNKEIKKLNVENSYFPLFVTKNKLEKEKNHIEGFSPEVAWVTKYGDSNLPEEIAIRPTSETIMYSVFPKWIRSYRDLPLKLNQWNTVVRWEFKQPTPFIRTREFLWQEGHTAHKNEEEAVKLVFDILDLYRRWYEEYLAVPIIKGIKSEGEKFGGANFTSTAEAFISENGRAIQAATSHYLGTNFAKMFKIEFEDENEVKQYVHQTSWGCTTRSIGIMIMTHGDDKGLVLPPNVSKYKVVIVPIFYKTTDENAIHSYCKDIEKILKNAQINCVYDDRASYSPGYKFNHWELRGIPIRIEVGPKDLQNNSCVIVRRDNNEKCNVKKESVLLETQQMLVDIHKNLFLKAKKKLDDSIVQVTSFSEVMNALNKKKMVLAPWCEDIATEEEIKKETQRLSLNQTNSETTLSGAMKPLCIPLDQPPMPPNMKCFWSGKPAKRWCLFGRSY
Chain of UniProt Q9RFC8 (whole entry, looked up): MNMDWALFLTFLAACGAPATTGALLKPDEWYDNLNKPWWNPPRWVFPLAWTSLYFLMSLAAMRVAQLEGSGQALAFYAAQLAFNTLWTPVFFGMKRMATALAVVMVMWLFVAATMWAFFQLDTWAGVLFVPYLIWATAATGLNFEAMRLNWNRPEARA

For `CSCC[C@H](NC(=O)[C@@H]1CCCN1)C(=O)N[C@@H](C)C(=O)N[C@@H](CO)C(=O)N[C@@H](CC(=O)O)C(=O)N1CCC[C@H]1C(=O)N[C@@H](CC(C)C)C(=O)NCC(=O)N[C@H](C(=O)N[C@H](C(=O)N[C@@H](CCCNC(=N)N)C(=O)N1CCC[C@H]1C(=O)N[C@@H](CCCNC(=N)N)C(=O)N[C@@H](C)C(=O)N[C@@H](CCCNC(=N)N)C(=O)N[C@@H](C)C(N)=O)C(C)C)C(C)C`, the Kd was 6.5 ± 1.2 µM (Klotho (Kl, Mus musculus, UniProt O35082); binding, competitive BLI; 30 °C, 30 min preincubation, added: biotinylated peptide immobilized).
`C=CC1=C(C)c2cc3[nH]c(cc4nc(cc5[nH]c(cc1n2)c(C)c5CCC(=O)O)C(CCC(=O)O)=C4C)c(C)c3C=C` gave a Kd of 0.3 µM (tspO (Cereibacter sphaeroides, UniProt Q9RFC8); binding, fluorescence).
`C[n+]1cn([C@@H]2O[C@H](COP(=O)(O)OP(=O)([O-])OP(=O)(O)OC[C@H]3O[C@@H](n4cnc5c(=O)[nH]c(N)nc54)[C@H](O)[C@@H]3O)[C@@H](O)[C@H]2O)c2nc(N)[nH]c(=O)c21` has a Kd of 0.068 µM (m7GpppX diphosphatase (DCS1, Saccharomyces cerevisiae, UniProt Q06151, H268N); NMR titration; closed site, H268N).
For `CCCCCCCO[C@@H]1C[C@@H](O)[C@@H](O)[C@H](O)[C@@H](CO)O1`, the Kd was greater than 500 µM (Type 1 fimbrin D-mannose specific adhesin, lectin domain (fimH, Escherichia coli K-12, UniProt P08191); binding, competitive fluorescence polarization; pH 7.4, isolated lectin domain).
`cGMP` has a Kd of 6.13 µM (Potassium/sodium hyperpolarization-activated cyclic nucleotide-gated channel 2, C-terminal region (Hcn2, Mus musculus, UniProt O88703); binding, isothermal titration calorimetry; C-linker/CNBD tetramer, site 3).
The Kd of `O=C(CC1NCCCC1O)Cn1cnc2cc(Br)c(Cl)cc2c1=O` (stereo not drawn) is reported as 0.0738 µM (Proline--tRNA ligase (Plasmodium falciparum, UniProt Q8I5R7); binding, MST).
`CN[C@H](CC(C)C)C(=O)N[C@H]1C(=O)N[C@@H](CC(N)=O)C(=O)N[C@H]2C(=O)N[C@H]3C(=O)N[C@H](C(=O)N[C@H](C(=O)O)c4cc(O)cc(O)c4-c4cc3ccc4O)[C@H](O)c3ccc(c(Cl)c3)Oc3cc2cc(c3O[C@@H]2O[C@H](CO)[C@@H](O)[C@H](O)[C@H]2O[C@H]2C[C@](C)(N)[C@H](O)[C@H](C)O2)Oc2ccc(cc2Cl)[C@H]1O` has a Kd of 4.8 ± 0.1 µM (MBP-Lys-D-Ala-D-Ala fusion; binding, SPR; 25 °C).
`CC[N+](CC)(CC)CC(=O)Nc1c(C)cccc1C` has a Kd of 910 µM (sodium channel (rat brain), batrachotoxin-modified; open channel block, blocker, planar lipid bilayer, single channel; symmetrical 0.5 M NaCl, 150 mV).
`CC(C)(O)[C@H]1O[C@H]2CC[C@@]3(C)[C@@](O)(CC[C@H]4Cc5c([nH]c6ccccc56)[C@@]43C)C2=CC1=O` has a Kd of 0.0119 ± 0.0023 µM (Kcnma1 (Mus musculus, UniProt Q08460); BK channel current, inhibitor, inside-out patch clamp; Xenopus oocytes; closed channel affinity).

Some of these lines once more:
For `CSCC[C@H](NC(=O)[C@@H]1CCCN1)C(=O)N[C@@H](C)C(=O)N[C@@H](CO)C(=O)N[C@@H](CC(=O)O)C(=O)N1CCC[C@H]1C(=O)N[C@@H](CC(C)C)C(=O)NCC(=O)N[C@H](C(=O)N[C@H](C(=O)N[C@@H](CCCNC(=N)N)C(=O)N1CCC[C@H]1C(=O)N[C@@H](CCCNC(=N)N)C(=O)N[C@@H](C)C(=O)N[C@@H](CCCNC(=N)N)C(=O)N[C@@H](C)C(N)=O)C(C)C)C(C)C`, the Kd was 6.5 ± 1.2 µM (Klotho (Kl, Mus musculus, UniProt O35082); binding, competitive BLI; 30 °C, 30 min preincubation, added: biotinylated peptide immobilized).
